Results from different studies.
“And” joins repeats or separate records; there may be more than shown. ± gives the spread as reported.

Structure (SMILES) = CC(C)(C)c1ccc(C(=O)Nc2ccc3[nH]c(C(=O)NO)cc3c2)cc1; species = mouse, 2LMP human breast cancer orthotopic xenograft; route = intraperitoneal; dose = 50 mg/kg five times per week; time = 3 weeks; reference = vehicle; measurement = body weight gain; result = not toxic
Structure (SMILES) = O=C(/C=C/CCc1ccc(O)cc1)/C=C/c1ccc(O)cc1; species = nude mouse MCF7 xenograft; dose = 40 mg/kg; time = day 9; measurement = body weight; result = 20 ± 1 g
Structure (SMILES) = NC[C@@H]1O[C@H](O[C@H]2[C@@H](O)[C@H](O[C@@H]3[C@@H](O)[C@H](N)C[C@H](N)[C@H]3O[C@H]3O[C@H](CO)[C@@H](O)[C@H](O)[C@H]3N)O[C@@H]2CO)[C@H](N)[C@@H](O)[C@@H]1O; species = NSG mouse; dose = dose not given; time = day 1 of treatment; measurement = body weight; result = 21.4 g and 20.7 g and 21.2 g and 21.8 g
Structure (SMILES) = O=C(O)CSc1nnc(Br)n1-c1ccc(C2CC2)c2ccccc12; species = KM mouse, chronic hyperuricaemia model; dose = dose not given; time = day 8; measurement = body weight; result = 25.4 g and 29.7 g and 24.8 g and 29.2 g and 32.5 g and 30.5 g
Structure (SMILES) = COc1cccc2c1C(=O)c1c(O)c3c(c(O)c1C2=O)C[C@@](O)(C(=O)CO)C[C@@H]3O[C@H]1C[C@H](N)[C@H](O)[C@H](C)O1; species = mouse 4T1 tumour; dose = 10 mg/kg; time = 14 days; measurement = body weight loss; result = ~19%
Structure (SMILES) = Cc1nc(-c2ccc(OCC(C)C)c(C#N)c2)sc1C(=O)O; species = KM mouse, chronic hyperuricaemia model; dose = dose not given; time = day 12; measurement = body weight; result = 37.2 g and 33.8 g and 30 g and 29 g and 34.6 g
Structure (SMILES) = CCCCCN1C[C@H](O)[C@@H](O)[C@H](O)[C@@H]1CO; species = mouse Hexb-/-; dose = dose not given; time = at euthanasia, 105 days of age; measurement = body weight; result = no effect
Structure (SMILES) = C=CCn1c(=O)c2cnc(Nc3ccc(N4CCN(C)CC4)cc3)nc2n1-c1ccc2c(n1)[C@@](O)(CC)CC2; species = mouse, A-427 xenograft; dose = 20 to 80 mg/kg once daily; time = 28 days; reference = vehicle; measurement = body weight loss; result = < 10%
Structure (SMILES) = CC(=O)O[C@@]12CO[C@@H]1C[C@H](O)[C@@]1(C)C(=O)[C@H](O)C3=C(C)[C@@H](OC(=O)[C@H](O)[C@@H](NC(=O)OC(C)(C)C)c4ccccc4)C[C@@](O)([C@@H](OC(=O)c4ccccc4)[C@H]21)C3(C)C; species = healthy BALB/c mouse; route = intravenous; dose = 10 mg/kg every 3 days, three doses; measurement = body weight loss; result = -14.3%
Structure (SMILES) = CCCCc1nc2cc(/C=C/C(=O)NO)ccc2n1CCN(CC)CC; species = mouse, HEL 92.1.7 subcutaneous xenograft; dose = 75 mg/kg every other day; time = day 17; reference = baseline; measurement = body weight; result = 103%
Structure (SMILES) = Nc1nnc(-c2ccccc2O)cc1N1CCN(Cc2ccc(OCCOCCNc3cccc4c3C(=O)N(C3CCC(=O)NC3=O)C4=O)c(F)c2)CC1 (stereo not shown); species = nude mouse xenograft; route = intraperitoneal; dose = 12.5 mg/kg daily; reference = vehicle; measurement = body weight decrease; result = 5 to 10%
Structure (SMILES) = COc1ccc(S(=O)(=O)ON=C2C=C(C)C(=O)C(C)=C2)cc1; species = NU/NU mouse, MDA-MB-468 xenograft; route = intraperitoneal; dose = 0.5 mg twice weekly; measurement = body weight change; result = ≤ 10%
Structure (SMILES) = O=C1CCC(=O)N1Cc1cc2nccc(-c3cc(Cl)cc4c3N([C@@H]3CNC5(CCC5)C3)CCC4)c2s1; species = mouse, MV4-11 xenograft; dose = 30 mg/kg twice daily; time = 24 days; measurement = body weight loss; result = < 5%

Repeated from above:
Structure (SMILES) = CC(=O)O[C@@]12CO[C@@H]1C[C@H](O)[C@@]1(C)C(=O)[C@H](O)C3=C(C)[C@@H](OC(=O)[C@H](O)[C@@H](NC(=O)OC(C)(C)C)c4ccccc4)C[C@@](O)([C@@H](OC(=O)c4ccccc4)[C@H]21)C3(C)C; species = healthy BALB/c mouse; route = intravenous; dose = 10 mg/kg every 3 days, three doses; measurement = body weight loss; result = -14.3%
